Measured values pooled from the literature.
Organism: Mycobacterium tuberculosis

| Compound | test | system | conditions | MIC |
| --- | --- | --- | --- | --- |
| C[C@H](Nc1cccc(F)c1F)C(=O)Nc1ccc2oc(-c3ccc(C#N)cc3)nc2c1 |  | H37Rv ATCC 27294, GAST/Fe and 7H9/ADC/Tween | 168 h | ≤ 5 µM |
| CCCCCCCCCCCC(=O)NS(=O)(=O)OC[C@H]1O[C@@H](n2cnc3c(N)ncnc32)[C@H](O)[C@@H]1O | broth microdilution | H37Rv, GAST medium | MIC at >99% growth inhibition | 0.19 to 0.78 µM |
| O=S1(=O)CCN(c2n[n+]([O-])c3cc4c(cc3[n+]2[O-])CCC4)CC1 | resazurin microplate | H37Rv |  | 2.5 to 5 µg/mL |
| Cc1cc2nc(C)c(C(=O)OCc3ccccc3)n2c(C)n1 | microplate alamar blue | H37Rv (ATCC 27294), 7H12 medium | replicating bacteria, range | 5 to 5.9 µM |
| CC1CCN(Cc2cc(-c3ccc(C(C)C)cc3)ccn2)CC1 | microbial growth, resazurin | H37RV |  | 1 to 2 µg/mL |
| C[C@H](Oc1cccc(F)c1F)C(=O)Nc1ccc2oc(-c3ccc(C#N)cc3)nc2c1 |  | H37Rv ATCC 27294, GAST/Fe and 7H9/ADC/Tween | 168 h | ≤ 5 µM |
| Nc1ncnc2c1ncn2[C@@H]1O[C@H](COS(=O)(=O)NC(=O)CCCCCCCCCCOc2ccccc2)[C@@H](O)[C@H]1O | broth microdilution | H37Rv, GAST medium | MIC at >99% growth inhibition | 3 µM |
| CCCCCCc1ccc(Oc2ccccc2F)c(O)c1 | microbial growth, resazurin |  |  | 1.56 µg/mL |
| CCCCCCCC(=O)NS(=O)(=O)OC[C@H]1O[C@@H](n2cnc3c(N)ncnc32)[C@H](O)[C@@H]1O | broth microdilution | H37Rv, GAST medium | MIC at >99% growth inhibition | 12.5 to 25 µM |
| Fc1ccccc1NCc1ccc(Oc2ccccn2)cc1 |  | H37Rv, GAST-Fe medium | 2 weeks, pH 6.6 | 43 µM |
| COc1ccc(-c2ccc(C(=O)OCc3ccccc3)cn2)cc1 | microplate alamar blue | H37Rv (ATCC 27294), GAS medium | replicating bacteria, range | 1.5 to 2.5 µM |
| C[C@H](Oc1cccc(F)c1F)C(=O)Nc1ccc2oc(-c3ccncc3)nc2c1 |  | H37Rv ATCC 27294, GAST/Fe and 7H9/ADC/Tween | 168 h | ≤ 5 µM |
| CO[C@H]1/C=C/O[C@@]2(C)Oc3c(C)c(O)c4c(O)c(c(/C=N/N5CCN(C)CC5)c(O)c4c3C2=O)NC(=O)/C(C)=C\C=C\[C@H](C)[C@H](O)[C@@H](C)[C@@H](O)[C@@H](C)[C@H](OC(C)=O)[C@@H]1C | microplate alamar blue | H37Rv (ATCC 27294), GAS medium | replicating bacteria, range | 0.08 to 0.1 µM |
| CCOC(=O)COc1cccc(-c2nc3cc(NC(=O)[C@H](C)Oc4cccc(Cl)c4Cl)ccc3o2)c1 |  | H37Rv ATCC 27294, GAST/Fe and 7H9/ADC/Tween | 168 h | ≤ 5 µM |
| Cc1ccccc1NCc1ccc(Oc2ccccn2)cc1 |  | H37Rv, GAST-Fe medium | 2 weeks, pH 6.6 | 43 µM |
| Nc1ncnc2c1ncn2[C@@H]1O[C@H](COS(=O)(=O)NC(=O)CCCCCCCCCCOc2cccc(C(F)(F)F)c2)[C@@H](O)[C@H]1O | broth microdilution | H37Rv, GAST medium | MIC at >99% growth inhibition | 25 to 50 µM |
| CC(C)c1ccc(-c2ccnc(CNC3C4CC5CC(C4)CC3C5)c2)cc1 (stereo not shown) | microbial growth, resazurin | H37RV |  | 1 to 2 µg/mL |
| O=C(OCc1ccccc1)c1coc(-c2ccccc2)n1 | microplate alamar blue | H37Rv (ATCC 27294), GAS medium | replicating bacteria, range | 0.5 to 7.9 µM |
| CCCCCCCCCC[C@@H](C)C(=O)NS(=O)(=O)OC[C@H]1O[C@@H](n2cnc3c(N)ncnc32)[C@H](O)[C@@H]1O | broth microdilution | H37Rv, GAST medium | MIC at >99% growth inhibition | 12.5 to 25 µM |
| COc1ccc(NCc2ccc(Oc3ccccn3)cc2)cc1 |  | H37Rv, 7H9/ADC/Tween medium | 1 weeks | 41 µM |

| Compound | test | system | conditions | MIC |
| --- | --- | --- | --- | --- |
| CC(C)c1ccc(-c2ccnc(CNC34CC5CC(CC(C5)C3)C4)c2)cc1 | microbial growth, resazurin | H37RV |  | 1 to 2 µg/mL |
| CCOC(=O)COc1ccc(-c2nc3cc(NC(=O)[C@H](C)Oc4cccc(Cl)c4Cl)ccc3o2)cc1 | microbial growth | ATCC27294 H37RV | 7 days | 0.2 µM |
| CCCCCC/C=C/CCCC(=O)NS(=O)(=O)OC[C@H]1O[C@@H](n2cnc3c(N)ncnc32)[C@H](O)[C@@H]1O | broth microdilution | H37Rv, GAST medium | MIC at >99% growth inhibition | 50 to 100 µM |
| Clc1ccccc1NCc1ccc(Oc2ccccn2)cc1 |  | H37Rv, 7H9/ADC/Tween medium | 1 weeks | > 100 µM |
| Cc1ccn2c(C(=O)NCc3ccccc3)c(-c3ccccc3)nc2c1 | microplate alamar blue | H37Rv (ATCC 27294), GAS medium | replicating bacteria, range | 0.5 to 0.7 µM |
| Nc1ncnc2c1ncn2[C@@H]1O[C@H](COS(=O)(=O)NC(=O)CCCCCCCCCCOc2ccc(C(F)(F)F)cc2)[C@@H](O)[C@H]1O | broth microdilution | H37Rv, GAST medium | MIC at >99% growth inhibition | 25 to 50 µM |
| Cc1ccc(-c2ccc(-c3ccnc(CN4CCC5(CCCC5)CC4)c3)cc2)cc1 | microbial growth, resazurin | H37RV |  | 0.125 to 0.25 µg/mL |
| CCCCCCCCC/C=C/C(=O)NS(=O)(=O)OC[C@H]1O[C@@H](n2cnc3c(N)ncnc32)[C@H](O)[C@@H]1O | broth microdilution | H37Rv, GAST medium | MIC at >99% growth inhibition | 50 to 100 µM |
| Fc1ccc(NCc2ccc(Oc3ccccn3)cc2)cc1 |  | H37Rv, 7H9/ADC/Tween medium | 2 weeks | > 50 µM |
| O=C(O)Cc1cc(I)c(Oc2cc(I)c(O)c(I)c2)c(I)c1 | microbial growth | H37RV | 10 days | 22 µg/mL |
| Cc1cccc(NCc2ccc(Oc3ccccn3)cc2)c1 |  | H37Rv, GAST-Fe medium | 1 weeks, pH 6.6 | 43 µM |
| CC(C)c1ccc(-c2ccnc(CNC3CCCCCCC3)c2)cc1 | microbial growth, resazurin | H37RV |  | 1 to 2 µg/mL |
| COc1ccc(-c2nc3cc(NC(=O)[C@H](C)Oc4ccccc4C#N)ccc3o2)cc1 |  | H37Rv ATCC 27294, GAST/Fe and 7H9/ADC/Tween | 168 h | ≤ 5 µM |
| Clc1ccc(NCc2ccc(Oc3ccccn3)cc2)cc1 |  | H37Rv, 7H9/ADC/Tween medium | 2 weeks | 80 µM |
| O=C(OCc1ccccc1)[C@@H]1COC(c2ccccc2)=N1 | microplate alamar blue | H37Rv (ATCC 27294), GAS medium | replicating bacteria, range | 2.9 to 6.2 µM |
| C[C@H](Oc1cccc(Cl)c1Cl)C(=O)Nc1ccc2oc(-c3ccc(C(=O)NO)cc3)nc2c1 |  | H37Rv ATCC 27294, GAST/Fe medium without guanine | 1 week | ≤ 5 µM |
| O=C(OCc1ccccc1)c1csc(-c2ccccc2)n1 | microplate alamar blue | H37Rv (ATCC 27294), 7H12 medium | replicating bacteria, range | 4 to 9.8 µM |
| COc1cccc(NCc2ccc(Oc3ccccn3)cc2)c1 |  | H37Rv, 7H9/ADC/Tween medium | 1 weeks | > 50 µM |
| CC1CCN(Cc2cc(-c3ccc4ccccc4c3)ccn2)CC1 | microbial growth, resazurin | H37RV |  | 2 to 4 µg/mL |
| Cc1nc2ncccn2c1C(=O)OCc1ccccc1 | microplate alamar blue | H37Rv (ATCC 27294), GAS medium | replicating bacteria, range | 1.7 to 2.7 µM |

Repeated from above:
| Compound | test | system | conditions | MIC |
| --- | --- | --- | --- | --- |
| Nc1ncnc2c1ncn2[C@@H]1O[C@H](COS(=O)(=O)NC(=O)CCCCCCCCCCOc2ccc(C(F)(F)F)cc2)[C@@H](O)[C@H]1O | broth microdilution | H37Rv, GAST medium | MIC at >99% growth inhibition | 25 to 50 µM |
| Cc1ccc(-c2ccc(-c3ccnc(CN4CCC5(CCCC5)CC4)c3)cc2)cc1 | microbial growth, resazurin | H37RV |  | 0.125 to 0.25 µg/mL |
| CCCCCCCCC/C=C/C(=O)NS(=O)(=O)OC[C@H]1O[C@@H](n2cnc3c(N)ncnc32)[C@H](O)[C@@H]1O | broth microdilution | H37Rv, GAST medium | MIC at >99% growth inhibition | 50 to 100 µM |
| Fc1ccc(NCc2ccc(Oc3ccccn3)cc2)cc1 |  | H37Rv, 7H9/ADC/Tween medium | 2 weeks | > 50 µM |
